Measured values pooled from the literature.
Numbered parts are unrelated; each lists some results of a single study.

Set 1
Target: Ras GTPase-activating protein-binding protein 1, C-terminal RGG region (G3BP1, Homo sapiens, UniProt Q13283)
UniProt Q13283, sequence (whole entry, looked up): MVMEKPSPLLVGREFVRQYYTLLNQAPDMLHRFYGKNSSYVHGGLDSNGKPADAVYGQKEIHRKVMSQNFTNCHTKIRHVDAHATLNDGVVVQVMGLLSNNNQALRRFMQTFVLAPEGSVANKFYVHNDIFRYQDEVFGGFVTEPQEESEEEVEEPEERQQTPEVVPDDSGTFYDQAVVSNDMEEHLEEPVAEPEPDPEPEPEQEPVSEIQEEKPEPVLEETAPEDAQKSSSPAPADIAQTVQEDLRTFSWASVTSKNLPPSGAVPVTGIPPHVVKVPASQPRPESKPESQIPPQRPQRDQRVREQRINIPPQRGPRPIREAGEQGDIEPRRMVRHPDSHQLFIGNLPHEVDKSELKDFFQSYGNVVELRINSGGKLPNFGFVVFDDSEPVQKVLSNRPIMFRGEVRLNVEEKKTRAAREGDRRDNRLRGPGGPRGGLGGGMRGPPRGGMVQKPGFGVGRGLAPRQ
Technique: RNA Bind-n-Seq
Molecule type: RNA
Matrix: in vitro
Concentration: 1 µM
Notes: whole 134-nt RNA, ends assumed
Added: 150 mM KCl
Reference: input library
Direction: higher = stronger binding
`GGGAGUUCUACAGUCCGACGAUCCCUGUGCUACACAUCGUAUGUACCGAAUCGGGGAAAAAAAGGGGAGGGGAAAAAAAGGGGAAAGUAUUAUGUUACGCCGUUCGGAUCUGCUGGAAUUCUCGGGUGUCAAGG` has a log2 enrichment of 0.208.
`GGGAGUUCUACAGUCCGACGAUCGUCCUGUGCUACACAUCGUAUGUACCGAAUCGGGCCCCCGGCCCCCGGGCCCCCGGGGAAAGUAUUAUGUUACGCCGUUCGGAUCUGCACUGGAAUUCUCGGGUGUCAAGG` has a log2 enrichment of -1.81.
The log2 enrichment of `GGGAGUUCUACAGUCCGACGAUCAAGUCCUGUGCUACACAUCGUAUGUACCGAAUCGGGCCCCGGCCCCGGGGCCCCGGAAAGUAUUAUGUUACGCCGUUCGGAUCUGCACUUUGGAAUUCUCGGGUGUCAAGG` is reported as -2.33.
For `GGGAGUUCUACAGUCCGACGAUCAAGUCCUGUGCUACACAUCGUAUGUACCGAAUCGGGUUUGGGAAAGGGUUUUUGGGAAAGUAUUAUGUUACGCCGUUCGGAUCUGCACUUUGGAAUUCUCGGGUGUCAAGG`, the log2 enrichment was 1.64.
With `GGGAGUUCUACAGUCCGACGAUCUCCUCAAGUCCUGUGCUACACAUCGUAUGUACCGAAUCGGCGGCGGGCGGGAAAGUAUUAUGUUACGCCGUUCGGAUCUGCACUUCCAGCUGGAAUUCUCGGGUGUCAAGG` the log2 enrichment was -0.72.
The log2 enrichment of `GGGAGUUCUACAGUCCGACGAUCUCCUGUGCUACACAUCGUAUGUACCGAAUCGGCCCCCCGGCCCCCCGGGGCCCCCCGGGAAAGUAUUAUGUUACGCCGUUCGGAUCUGCAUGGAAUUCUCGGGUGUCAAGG` is reported as -1.05.
`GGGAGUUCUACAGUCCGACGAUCUCCUGUGCUACACAUCGUAUGUACCGAAUCGGGGAAAAAGGGGUUUUUGGGGAAAGGGGAAAGUAUUAUGUUACGCCGUUCGGAUCUGCAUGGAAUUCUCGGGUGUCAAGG` has a log2 enrichment of 1.63.
The log2 enrichment of `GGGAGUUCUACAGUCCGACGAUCCUCAAGUCCUGUGCUACACAUCGUAUGUACCGAAUCGGGGCCGGGCCGGGCCGGAAAGUAUUAUGUUACGCCGUUCGGAUCUGCACUUCCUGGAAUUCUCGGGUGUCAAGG` is reported as -1.62.
`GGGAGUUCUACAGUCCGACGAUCUCCUGUGCUACACAUCGUAUGUACCGAAUCGGGGUGGGGAAAAAGGGGUUUUUUUGGGGAAAGUAUUAUGUUACGCCGUUCGGAUCUGCAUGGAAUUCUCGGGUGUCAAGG` gave a log2 enrichment of 1.57.
The log2 enrichment of `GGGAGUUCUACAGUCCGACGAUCGCAGGAAGUAAAAACAAAUGGAAAUGCUUCGGAUAGUGGAAAGGGUGGGGGUUGCUAAGGAAAGGGUGGGAUGGGAGUGGGUAAAGAGUUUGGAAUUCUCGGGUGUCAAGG` is reported as 1.95.

Set 2
Target: Sal-like protein 4, full length isoform B (SALL4, Homo sapiens, UniProt Q9UJQ4-2, residues 1-616)
Technique: universal PBM
Molecule type: double-stranded DNA, one strand shown
Matrix: in vitro
Concentration: not given
Notes: 8-mer, flanks averaged, mean of replicates
Direction: higher = stronger binding
Construct (chain): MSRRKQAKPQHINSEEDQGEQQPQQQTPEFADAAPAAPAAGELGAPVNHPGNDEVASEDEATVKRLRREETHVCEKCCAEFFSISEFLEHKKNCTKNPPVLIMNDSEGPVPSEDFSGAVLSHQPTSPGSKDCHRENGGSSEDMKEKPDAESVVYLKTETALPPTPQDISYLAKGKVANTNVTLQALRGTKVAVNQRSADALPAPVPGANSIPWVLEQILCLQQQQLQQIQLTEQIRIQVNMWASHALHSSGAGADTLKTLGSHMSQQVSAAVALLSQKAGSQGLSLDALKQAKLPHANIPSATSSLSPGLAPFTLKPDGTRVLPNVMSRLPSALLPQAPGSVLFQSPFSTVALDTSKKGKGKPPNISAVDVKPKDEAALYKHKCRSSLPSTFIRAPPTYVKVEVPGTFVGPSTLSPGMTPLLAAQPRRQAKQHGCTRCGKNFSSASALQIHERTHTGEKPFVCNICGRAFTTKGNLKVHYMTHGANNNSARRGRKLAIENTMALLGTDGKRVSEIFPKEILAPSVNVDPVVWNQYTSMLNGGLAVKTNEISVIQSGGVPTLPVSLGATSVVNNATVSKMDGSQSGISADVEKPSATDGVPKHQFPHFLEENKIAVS
The E-score of `CAGGCCGC` is reported as -0.332.
`CAATAGCC` has an E-score of 0.0243.
For `ATGTGCAA`, the E-score was 0.131.
With `CGTACACC` the E-score was -0.11.
`CCAGGAAC` has an E-score of -0.32.
For `CGATTTCC`, the E-score was -0.15.
For `CTGTTAAG`, the E-score was 0.0593.
`CTGGCTAA` has an E-score of -0.106.
`ACGATAAA` gave an E-score of 0.167.
The E-score of `GCTAGGTA` is reported as 0.00663.
The E-score of `TAAAGGAA` is reported as 0.171.
`AAGTCCGT` has an E-score of -0.117.
With `ACGGGCCC` the E-score was -0.408.
With `ACTAGTCA` the E-score was 0.0497.
For `AGTCAGTC`, the E-score was -0.191.
For `ATAATTAC`, the E-score was 0.444.
`CAGCATTA` gave an E-score of 0.209.
For `CAATAGTG`, the E-score was 0.166.
For `AGTACTAC`, the E-score was 0.145.
For `CGTGTTAG`, the E-score was 0.0388.
For `ATGCAGCC`, the E-score was -0.0727.
For `AGATTGGA`, the E-score was 0.0693.
With `ACTATTTG` the E-score was 0.252.

Set 3
Target: RING finger protein unkempt homolog, zinc fingers 1-6, SBP tag (UNK, Homo sapiens, UniProt Q9C0B0, residues 30-357)
UniProt Q9C0B0, sequence (30-357, looked up): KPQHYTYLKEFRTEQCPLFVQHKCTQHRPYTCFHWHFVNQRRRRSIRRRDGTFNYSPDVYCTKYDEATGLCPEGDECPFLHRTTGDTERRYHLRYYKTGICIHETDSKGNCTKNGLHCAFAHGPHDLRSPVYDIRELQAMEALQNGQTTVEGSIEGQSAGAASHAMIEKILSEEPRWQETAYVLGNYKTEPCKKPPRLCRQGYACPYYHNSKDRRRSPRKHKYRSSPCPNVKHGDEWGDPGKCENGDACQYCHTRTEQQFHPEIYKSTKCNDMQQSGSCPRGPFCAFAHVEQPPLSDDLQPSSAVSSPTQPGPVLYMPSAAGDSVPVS
Technique: RNA Bind-n-Seq
Molecule type: RNA
Matrix: in vitro
Concentration: 100 nM
Notes: RNA with constant flanks, vertebrate orthologous sites, ends assumed
Reference: input RNA pool
Direction: higher = stronger binding
`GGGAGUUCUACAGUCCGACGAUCUUCAGGCACAGCUAUCUGGUACUCAGCAUUCCUUACCUAACUAUUUAACGAGCGUAAGUGGAGUGUCAUUGCAGGACGCAUCCAGACAGUCACUUUUGUGCGCUCCCCUAGGAGCUCUUACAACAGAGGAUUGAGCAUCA` has a bound/input enrichment of 0.435 ratio.
For `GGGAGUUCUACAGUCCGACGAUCUGGGUUACUCCUAUUAUUAUCAAGUAGCUGGAAUUGUGAAGUUCGGAGUAGUUAGAUCUUUAGCUUUUAUUCCUUAUUUUUUUGUAUUACUCUCCAUGUGUAUAAAUUAUUGAUCAUGUUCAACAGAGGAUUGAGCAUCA`, the bound/input enrichment was 4.41 ratio.
`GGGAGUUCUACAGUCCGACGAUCGGGACGCUUUGAUGUAAAAAUUGAAGUUAAGAGCUGAUCACAAGCACAGAUCUUUCCCACCAGCCAUUGAAAAAAAGUAAAAAAGAUAAAAACAAAAACCUACUAGUCUUGAACAAACUGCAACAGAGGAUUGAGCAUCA` gave a bound/input enrichment of 0.706 ratio.
With `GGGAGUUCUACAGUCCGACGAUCGAUUUGGACCUUGGAGCUGAACCAGGGAGCUAGCAAAAGUAAAGCAGACUUGUAAAAUUAUAGCUAUAUGCAGCUGCACAACACAGUCCUACCACUAGCAGCUGUGUUAAAGUAUUUAUACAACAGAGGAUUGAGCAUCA` the bound/input enrichment was 0.653 ratio.
The bound/input enrichment of `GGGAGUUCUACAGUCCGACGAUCAGUAAUGUGUUUAUUUAUUGUGCAUACGUAUGUGCUAAGGAUUGUGUUAGGGUUGAUAAUUAGUGGAUUGAUUCCACUUUGUCGUAUUGUUUUCAUUAUUGAAAAUAAACGUAACUUUGUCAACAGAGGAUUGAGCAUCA` is reported as 0.519 ratio.
`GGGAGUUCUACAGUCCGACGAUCCAUAAUCACUCUAAUUGUAAUCUGAAUAAAGUGUAACAUUGUGUAGCCUUUUGUAUAAAAUAGACAAAUAGAAAUGGUCCAAUUAGUUUCCUUUUUAAUAUGCUUAAAAUAAGCAGGUGGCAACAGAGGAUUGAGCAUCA` gave a bound/input enrichment of 1.71 ratio.
For `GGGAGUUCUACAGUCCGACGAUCCCGAAAGGCCAAAUCCCCUCCUCCCUUCUACUGCUUCUGCCAACUGGAAGCACAGAAAACUAGAACUUCAUUUAUUUUGUUUUUUUUUUUAAAAAAGAUACACUGAUUUAACAUCGGUAGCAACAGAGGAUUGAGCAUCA`, the bound/input enrichment was 1.05 ratio.
`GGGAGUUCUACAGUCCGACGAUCACGCUUUGAUAUUAAAUUUGACAUAAGAAGCAGCUGAUUGUAAGCACAACUCUUUCCUCCUAGCCAUUUAAAAAAGGUAAAAGACAAAAAAGAAAACCUACUAGUCUUGAACAAACUGUCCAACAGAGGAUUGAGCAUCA` has a bound/input enrichment of 0.65 ratio.
The bound/input enrichment of `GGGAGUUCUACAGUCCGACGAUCUAUUUUCUUAUUUUAGAUAUCAUUGCCCGAUGCCUAAGAUCUUUUAUGUUCAGCUCACUGUAGGAAAUAAUGAAUUUUUUGGGGAAGGGAAGACUCGACAAGCUGCUAGACACAAUGCCGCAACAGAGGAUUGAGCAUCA` is reported as 1.01 ratio.
`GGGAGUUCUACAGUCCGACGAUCGUGGGGGUUUGGGGGCGGGAAAGGGAAGAUGUAUGGAUGUUCUUGGCAAUUUUUUGAGUGUUUAGAGGUUUUUUUUUCACCCCCCUUUCUUCAUUUUUCUCUUUUUGCAUUUUCCUUUUACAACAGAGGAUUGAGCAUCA` has a bound/input enrichment of 0.936 ratio.
For `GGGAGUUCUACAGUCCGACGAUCAAACCCCGAUUUUAGAUGUGAUAUCUAGGCUUUCAUUCCAGUUUGUUUUUGUCUUUUGUUUAGAUACCAAUCUUUUAAAUUCUUGCAUUUUAGUAAGAAAGCUACCUUUUUAUGGAUGUUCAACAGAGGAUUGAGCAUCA`, the bound/input enrichment was 0.742 ratio.

Set 4
Target: Histone acetyltransferase KAT6A, winged helix 1, GST fusion (KAT6A, Homo sapiens, UniProt Q92794, residues 1-85)
Technique: protein binding microarray
Molecule type: double-stranded DNA, one strand shown
Matrix: in vitro
Concentration: not given
Notes: 8-mer, flanks averaged, mean of 2 arrays, mostly near background
Reference: not given
Direction: higher = stronger binding
Target sequence (chain): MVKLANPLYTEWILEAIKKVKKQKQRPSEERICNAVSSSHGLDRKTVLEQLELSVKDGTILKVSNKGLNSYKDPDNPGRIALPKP
With `ATAAATGA` the E-score was -0.304.
The E-score of `TGATCGAA` is reported as -0.116.
`ACTTCTAT` gave an E-score of -0.32.
`GCTTCTGA` has an E-score of 0.0684.
`CCTTTGAC` has an E-score of -0.169.
`AGGAACTG` has an E-score of -0.0929.
`ACTTGAAC` has an E-score of -0.194.
`TCAGTCGA` has an E-score of -0.147.
With `AGTATTTC` the E-score was -0.0324.
`CATAGATC` gave an E-score of -0.131.
For `GAATTATA`, the E-score was -0.0959.
The E-score of `CGTCTACA` is reported as 0.102.
The E-score of `AAACTAAT` is reported as -0.0407.
The E-score of `AATCAATT` is reported as -0.13.
`AAAGGACA` has an E-score of -0.189.
With `GAGAGCAC` the E-score was -0.0726.
`ACGGTCGA` gave an E-score of 0.185.
The E-score of `AGCTAAGG` is reported as -0.146.
`ATATCGCG` has an E-score of 0.314.
For `ACCAGCCG`, the E-score was 0.219.
`GGGGGGTA` has an E-score of 0.0687.
With `CAAACTAC` the E-score was -0.144.
With `CACACATG` the E-score was -0.0542.
For `ATGTCCTA`, the E-score was 0.0437.
With `CAAGCATA` the E-score was -0.182.

Repeated from above (set 1):
For `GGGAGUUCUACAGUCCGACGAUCAAGUCCUGUGCUACACAUCGUAUGUACCGAAUCGGGUUUGGGAAAGGGUUUUUGGGAAAGUAUUAUGUUACGCCGUUCGGAUCUGCACUUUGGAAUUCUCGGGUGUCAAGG`, the log2 enrichment was 1.64.
With `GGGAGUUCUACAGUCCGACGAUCUCCUCAAGUCCUGUGCUACACAUCGUAUGUACCGAAUCGGCGGCGGGCGGGAAAGUAUUAUGUUACGCCGUUCGGAUCUGCACUUCCAGCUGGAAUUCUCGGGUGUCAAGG` the log2 enrichment was -0.72.
The log2 enrichment of `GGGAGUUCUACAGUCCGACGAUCUCCUGUGCUACACAUCGUAUGUACCGAAUCGGCCCCCCGGCCCCCCGGGGCCCCCCGGGAAAGUAUUAUGUUACGCCGUUCGGAUCUGCAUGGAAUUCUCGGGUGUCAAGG` is reported as -1.05.
`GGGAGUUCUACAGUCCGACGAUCUCCUGUGCUACACAUCGUAUGUACCGAAUCGGGGAAAAAGGGGUUUUUGGGGAAAGGGGAAAGUAUUAUGUUACGCCGUUCGGAUCUGCAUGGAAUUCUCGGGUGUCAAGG` has a log2 enrichment of 1.63.
